# Published values collected from several papers.
# ± marks the error that the study gave.
Compound,test,system,setting,solubility
CCCS(=O)(=O)Nc1ccc(F)c(C(=O)c2cn(C(=O)OCc3cc(P(=O)(O)O)ccc3OP(=O)(O)O)c3ncc(-c4ccc(Cl)cc4)cc23)c1F,"HPLC, saturated solution",HBSS,"30 s, pH 6.5",37000 µg/mL
NC[C@H](NC(=O)[C@@H](Cc1c[nH]c2ccccc12)NC(=O)OCC1c2ccccc2-c2ccccc21)C(=O)N[C@@H](CCCCNC(=O)CN1CCN(CC(=O)O)CCN(CC(=O)O)CCN(CC(=O)O)CC1)C(N)=O,,aqueous buffer,,≥ 5000 µM
N#Cc1cc([C@@H]2COCC3(CCOCC3)N2)ccc1F,"shake-flask, LC-HRMS",aqueous buffer,"16 h, pH 6.8",> 750 µM
COC1=CC(c2ccc[nH]2)=N/C1=C\c1[nH]c(-c2ccc(OC)cc2)cc1-c1ccc(OC)cc1,,potassium phosphate buffer,"1.5 h, pH 7.4, room temperature",8.95 µM
N#Cc1cc([C@H]2COC[C@@H](c3ccc(-c4ccccn4)cc3)N2)ccc1F,"shake-flask, LC-HRMS",aqueous buffer,"16 h, pH 6.8",< 4 µM
O=C(O)c1cccc(CSc2nnc(-c3ccncc3)o2)c1,,aqueous buffer,pH 7.4,422 µg/mL
c1cncc(-c2cccc(Nc3cc(NC4CCCCC4)ccn3)c2)c1,,citrate phosphate-buffered saline,"18 h, pH 7.4, 1% DMSO",58.9 ± 0.5 µM
CC(=O)[C@H]1CC[C@H]2[C@@H]3CCC4=CC(=O)CC[C@]4(C)[C@H]3CC[C@]12C,,PBS,"2 h, pH 7.4",17.9 µM
O=C(Cn1nc(-c2cccc([N+](=O)[O-])c2)c2ccccc2c1=O)NCC1CCCO1 (stereo not shown),,aqueous buffer,pH 7.4,8.03 µg/mL
Clc1nc(SCc2ccccc2)c2[nH]cnc2n1,UV absorbance,culture medium,stock diluted to 0.14 mM,34 µM
CCOC(=O)N1C[C@@H](C2CCOCC2)N[C@@H](C(C)C)C1,"shake-flask, LC-HRMS",aqueous buffer,"16 h, pH 6.8",> 750 µM
COc1cc(OC)c2c(=O)cc(-c3ccccc3)oc2c1,HPLC,ethanol:butylene glycol 100:0,,13700 ± 95 ppm
CCOC(=O)N1C[C@@H](c2ccc(Cl)cc2)N[C@H](c2ccc(C(C)(C)C)cc2)C1,"shake-flask, LC-HRMS",aqueous buffer,"16 h, pH 6.8",< 4 µM
CNc1ccnc(Nc2cccc(-c3cccnc3)c2)n1,,citrate phosphate-buffered saline,"18 h, pH 7.4, 1% DMSO",57.9 ± 2.2 µM
Cc1nnc(Nc2ccnc3ccc(-c4ccc(S(=O)(=O)N5CCOCC5)cc4)cc23)nc1C,thermodynamic,aqueous medium,,2 µM
Cc1nc(C)c(-c2ccnc(Nc3ccc(N(C)C)c(Cl)c3)n2)s1,,aqueous buffer,pH 7.4,< 1.54 µg/mL
Cc1cc(/C=C/C#N)cc(C)c1Nc1ccnc(Nc2ccc(C#N)cc2)n1,,aqueous buffer,"24 h, pH 1.2, 37 °C",1.11 ± 0.07 µg/mL
CCOC(=O)N1C[C@@H](c2cccc(Br)c2)N[C@@H](c2ccc(F)c(C#N)c2)C1,"shake-flask, LC-HRMS",aqueous buffer,"16 h, pH 6.8",< 4 µM
NS(=O)(=O)c1ccc(NN=C2C(=O)Nc3ccc(C(=O)O)cc32)cc1,,aqueous buffer,pH 7.4,742 µg/mL
CCOC(=O)N1C[C@@H](C2CCOCC2)N[C@@H](C(C)(C)C)C1,"shake-flask, LC-HRMS",aqueous buffer,"16 h, pH 6.8",> 750 µM
CC(=O)N=S(=O)(O)c1ccc(N/C=C2\C(=O)Nc3ccc4ncsc4c32)cc1,,aqueous buffer,pH 7.4,30.5 µg/mL
CCOC(=O)N1C[C@@H]([C@H]2CCOC2)N[C@@H](C(C)(C)C)C1,"shake-flask, LC-HRMS",aqueous buffer,"16 h, pH 6.8",> 750 µM
O=C(Nc1ccc(S(=O)(=O)Nc2ncccn2)cc1)c1c(Cl)cccc1Cl,,aqueous buffer,pH 7.4,15.2 µg/mL
CC(C)(C)c1ccc([C@@H]2COC[C@H](C3CCCCC3)N2)cc1,"shake-flask, LC-HRMS",aqueous buffer,"16 h, pH 6.8",< 4 µM
COc1cccc(-n2nnnc2SCC(=O)Nc2c(C)cc(C)cc2C)c1,,aqueous buffer,pH 7.4,< 2.74 µg/mL

# Some of these lines once more:
Compound,test,system,setting,solubility
CCOC(=O)N1C[C@@H](c2cccc(Br)c2)N[C@@H](c2ccc(F)c(C#N)c2)C1,"shake-flask, LC-HRMS",aqueous buffer,"16 h, pH 6.8",< 4 µM
COc1cccc(-n2nnnc2SCC(=O)Nc2c(C)cc(C)cc2C)c1,,aqueous buffer,pH 7.4,< 2.74 µg/mL
NS(=O)(=O)c1ccc(NN=C2C(=O)Nc3ccc(C(=O)O)cc32)cc1,,aqueous buffer,pH 7.4,742 µg/mL
